Experimental data gathered from unrelated publications.
Values joined by “and” are separate records of one study, mostly repeats; a detail may differ. ± marks the error that the study gave.
Aryl hydrocarbon receptor: Aryl hydrocarbon receptor (Danio rerio, UniProt Q9YGV3)
Chain of UniProt P00519 (whole entry, unmodified, looked up): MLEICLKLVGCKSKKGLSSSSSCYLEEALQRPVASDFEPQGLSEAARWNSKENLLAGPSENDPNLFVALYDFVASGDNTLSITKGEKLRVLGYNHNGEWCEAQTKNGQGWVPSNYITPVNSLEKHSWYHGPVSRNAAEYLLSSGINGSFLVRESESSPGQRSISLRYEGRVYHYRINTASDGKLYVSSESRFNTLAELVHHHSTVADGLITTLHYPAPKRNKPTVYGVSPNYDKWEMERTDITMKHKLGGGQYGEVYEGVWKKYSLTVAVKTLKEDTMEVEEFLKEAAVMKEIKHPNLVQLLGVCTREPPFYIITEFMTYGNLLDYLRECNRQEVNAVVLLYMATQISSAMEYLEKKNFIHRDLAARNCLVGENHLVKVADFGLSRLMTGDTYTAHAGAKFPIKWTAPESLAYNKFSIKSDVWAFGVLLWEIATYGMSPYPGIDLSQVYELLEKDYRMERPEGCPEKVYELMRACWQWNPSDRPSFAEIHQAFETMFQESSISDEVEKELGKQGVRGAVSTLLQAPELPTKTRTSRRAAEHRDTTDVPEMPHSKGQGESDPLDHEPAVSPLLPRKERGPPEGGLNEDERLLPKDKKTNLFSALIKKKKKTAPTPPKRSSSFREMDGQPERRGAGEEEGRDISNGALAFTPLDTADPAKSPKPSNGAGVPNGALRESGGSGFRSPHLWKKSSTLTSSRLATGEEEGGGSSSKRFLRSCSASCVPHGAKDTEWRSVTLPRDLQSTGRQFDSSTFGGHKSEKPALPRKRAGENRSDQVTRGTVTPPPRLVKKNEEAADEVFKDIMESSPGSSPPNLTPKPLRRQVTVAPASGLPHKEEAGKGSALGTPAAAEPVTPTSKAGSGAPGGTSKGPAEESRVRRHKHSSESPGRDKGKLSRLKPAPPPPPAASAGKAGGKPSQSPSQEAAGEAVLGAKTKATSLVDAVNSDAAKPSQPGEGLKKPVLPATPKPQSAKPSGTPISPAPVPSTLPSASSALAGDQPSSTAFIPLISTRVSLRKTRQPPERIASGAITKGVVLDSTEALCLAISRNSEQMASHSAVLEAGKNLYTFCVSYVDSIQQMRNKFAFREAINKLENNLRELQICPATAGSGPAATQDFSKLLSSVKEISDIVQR
Chain of UniProt P11388 (whole entry, looked up): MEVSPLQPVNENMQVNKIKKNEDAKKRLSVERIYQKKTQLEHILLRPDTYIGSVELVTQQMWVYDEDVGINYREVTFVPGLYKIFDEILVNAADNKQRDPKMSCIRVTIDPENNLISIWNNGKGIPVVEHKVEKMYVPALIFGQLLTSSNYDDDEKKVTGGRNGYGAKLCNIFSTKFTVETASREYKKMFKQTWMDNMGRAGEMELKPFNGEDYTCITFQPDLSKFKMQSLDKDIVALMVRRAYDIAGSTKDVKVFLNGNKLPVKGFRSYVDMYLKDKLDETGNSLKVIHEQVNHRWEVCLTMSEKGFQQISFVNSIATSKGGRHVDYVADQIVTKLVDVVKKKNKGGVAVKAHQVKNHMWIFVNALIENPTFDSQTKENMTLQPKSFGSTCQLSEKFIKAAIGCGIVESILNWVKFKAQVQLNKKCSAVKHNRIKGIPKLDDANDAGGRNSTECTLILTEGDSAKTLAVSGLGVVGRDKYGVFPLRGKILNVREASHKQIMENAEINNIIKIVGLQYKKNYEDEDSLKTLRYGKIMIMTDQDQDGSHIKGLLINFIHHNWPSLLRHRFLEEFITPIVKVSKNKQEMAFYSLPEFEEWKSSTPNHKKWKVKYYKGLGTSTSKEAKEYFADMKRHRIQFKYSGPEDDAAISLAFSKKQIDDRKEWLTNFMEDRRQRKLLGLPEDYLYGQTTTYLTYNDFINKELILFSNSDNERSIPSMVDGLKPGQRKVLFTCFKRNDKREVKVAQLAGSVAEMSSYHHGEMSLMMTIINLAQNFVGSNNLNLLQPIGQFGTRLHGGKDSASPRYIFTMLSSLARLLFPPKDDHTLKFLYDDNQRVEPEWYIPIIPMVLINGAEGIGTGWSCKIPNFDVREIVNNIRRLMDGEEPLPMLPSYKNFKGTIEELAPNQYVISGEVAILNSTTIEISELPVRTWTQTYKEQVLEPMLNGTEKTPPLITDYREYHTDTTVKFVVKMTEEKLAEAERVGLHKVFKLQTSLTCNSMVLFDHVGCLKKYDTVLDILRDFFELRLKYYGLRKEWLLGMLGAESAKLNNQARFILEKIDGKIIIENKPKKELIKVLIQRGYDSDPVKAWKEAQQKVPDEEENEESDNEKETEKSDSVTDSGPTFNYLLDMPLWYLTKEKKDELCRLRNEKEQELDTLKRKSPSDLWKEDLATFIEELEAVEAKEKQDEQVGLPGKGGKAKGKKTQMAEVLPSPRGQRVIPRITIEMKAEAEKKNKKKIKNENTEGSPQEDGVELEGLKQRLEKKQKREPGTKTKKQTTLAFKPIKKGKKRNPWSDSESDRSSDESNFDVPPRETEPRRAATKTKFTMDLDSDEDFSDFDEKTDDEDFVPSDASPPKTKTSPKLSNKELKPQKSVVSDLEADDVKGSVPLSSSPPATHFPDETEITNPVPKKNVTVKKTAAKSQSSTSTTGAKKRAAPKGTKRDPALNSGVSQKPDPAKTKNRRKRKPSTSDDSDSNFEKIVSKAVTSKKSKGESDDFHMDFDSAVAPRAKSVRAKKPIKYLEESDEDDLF
Chain of UniProt Q01105 (whole entry, unmodified, looked up): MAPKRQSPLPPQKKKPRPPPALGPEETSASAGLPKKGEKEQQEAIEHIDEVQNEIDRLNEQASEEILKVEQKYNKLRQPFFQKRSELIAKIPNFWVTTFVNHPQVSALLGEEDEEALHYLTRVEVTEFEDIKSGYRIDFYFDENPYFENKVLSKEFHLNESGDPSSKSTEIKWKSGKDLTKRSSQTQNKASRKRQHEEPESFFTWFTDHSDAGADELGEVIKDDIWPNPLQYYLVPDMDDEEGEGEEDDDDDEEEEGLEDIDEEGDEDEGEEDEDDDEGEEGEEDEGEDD
Chain of UniProt O75716 (whole entry, looked up): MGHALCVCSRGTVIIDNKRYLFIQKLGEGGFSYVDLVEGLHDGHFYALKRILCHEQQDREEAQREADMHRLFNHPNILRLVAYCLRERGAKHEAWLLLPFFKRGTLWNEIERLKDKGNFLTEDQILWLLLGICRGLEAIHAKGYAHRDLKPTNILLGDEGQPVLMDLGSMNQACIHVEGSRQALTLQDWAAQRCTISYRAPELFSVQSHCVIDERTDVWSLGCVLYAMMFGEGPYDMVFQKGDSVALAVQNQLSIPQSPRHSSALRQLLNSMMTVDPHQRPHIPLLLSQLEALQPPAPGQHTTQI
Chain of UniProt P18089 (whole entry, looked up): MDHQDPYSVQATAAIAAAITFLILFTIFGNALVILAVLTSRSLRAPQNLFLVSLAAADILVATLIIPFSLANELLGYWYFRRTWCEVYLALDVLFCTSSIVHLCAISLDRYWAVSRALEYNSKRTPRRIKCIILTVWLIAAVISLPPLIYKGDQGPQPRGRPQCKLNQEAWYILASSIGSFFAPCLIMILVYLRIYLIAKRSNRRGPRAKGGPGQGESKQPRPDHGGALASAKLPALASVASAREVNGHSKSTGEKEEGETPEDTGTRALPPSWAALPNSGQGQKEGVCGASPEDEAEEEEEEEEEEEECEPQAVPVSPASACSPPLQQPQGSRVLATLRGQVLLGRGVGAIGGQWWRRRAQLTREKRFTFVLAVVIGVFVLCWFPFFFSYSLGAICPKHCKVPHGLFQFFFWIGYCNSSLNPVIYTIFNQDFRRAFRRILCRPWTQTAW
Chain of UniProt P25963 (whole entry, unmodified, looked up): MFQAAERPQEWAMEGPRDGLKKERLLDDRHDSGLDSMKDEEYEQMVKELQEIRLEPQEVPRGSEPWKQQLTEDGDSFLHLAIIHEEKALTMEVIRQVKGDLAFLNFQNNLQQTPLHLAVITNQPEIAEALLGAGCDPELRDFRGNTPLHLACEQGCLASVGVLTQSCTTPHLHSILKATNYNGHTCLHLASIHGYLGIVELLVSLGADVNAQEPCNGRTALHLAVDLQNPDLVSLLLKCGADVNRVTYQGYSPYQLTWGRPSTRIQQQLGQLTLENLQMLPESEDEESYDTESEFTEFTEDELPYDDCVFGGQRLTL
Chain of UniProt P35869 (whole entry, looked up): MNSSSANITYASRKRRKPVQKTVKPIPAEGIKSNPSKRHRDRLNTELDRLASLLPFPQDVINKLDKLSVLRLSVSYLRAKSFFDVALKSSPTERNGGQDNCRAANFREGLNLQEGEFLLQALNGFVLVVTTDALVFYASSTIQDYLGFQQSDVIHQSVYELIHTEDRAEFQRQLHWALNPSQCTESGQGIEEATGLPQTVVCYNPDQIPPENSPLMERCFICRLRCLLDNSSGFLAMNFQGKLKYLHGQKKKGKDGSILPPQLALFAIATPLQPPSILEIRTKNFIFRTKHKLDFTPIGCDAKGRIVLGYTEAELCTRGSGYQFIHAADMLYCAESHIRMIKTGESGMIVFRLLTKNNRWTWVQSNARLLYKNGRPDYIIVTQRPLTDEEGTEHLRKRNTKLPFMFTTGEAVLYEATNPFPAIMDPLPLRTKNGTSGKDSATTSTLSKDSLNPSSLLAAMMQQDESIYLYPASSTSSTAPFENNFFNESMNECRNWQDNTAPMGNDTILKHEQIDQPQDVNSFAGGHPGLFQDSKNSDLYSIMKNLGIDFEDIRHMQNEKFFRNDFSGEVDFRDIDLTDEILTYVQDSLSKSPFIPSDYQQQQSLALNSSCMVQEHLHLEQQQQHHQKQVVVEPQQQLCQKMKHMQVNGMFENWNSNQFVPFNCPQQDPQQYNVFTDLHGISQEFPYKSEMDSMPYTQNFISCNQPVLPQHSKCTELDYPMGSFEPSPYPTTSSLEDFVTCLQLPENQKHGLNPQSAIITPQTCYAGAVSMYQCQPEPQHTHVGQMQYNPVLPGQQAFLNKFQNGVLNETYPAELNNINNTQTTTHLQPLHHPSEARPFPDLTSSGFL

| SMILES | target | test | test system | setting | how to read | quantity | value |
| --- | --- | --- | --- | --- | --- | --- | --- |
| CC[C@@H]1[C@H](F)C(=O)N[C@@H]1COc1nccc2cc(C(N)=O)c(OC)cc12 | STK16 (Homo sapiens, UniProt O75716) | ATP-site probe binding, ActivX profiling | THP-1 cell lysate | 0.2 mM, Lys1 site | – | inhibition | 22.2% |
| C[n+]1cn([C@@H]2O[C@H](COP(=O)(O)OP(=O)(O)OP(=O)(O)OC[C@H]3O[C@@H](n4cnc5c(=O)[nH]c(N)nc54)[C@H](O)[C@@H]3O)[C@@H](O)[C@H]2O)c2nc(N)[nH]c(=O)c21 | EIF4E2 (Homo sapiens, UniProt O60573) | ITC | – | concentration not given, pH 7.5, 20 °C | – | binding stoichiometry | 1.01 ± 0.01 |
| Cn1c2c(c3ccc(Cl)c(Cl)c31)C(C#N)C1(CCOCC1)NC2=O (stereo not drawn) | RPS6KA2 (Homo sapiens, UniProt Q15349) | thermal shift | – | 10 µM, 2 µM protein | higher = stronger binding | ΔTm | 0.2 °C |
| CCCCCCCCCCCCC/C=C/[C@@H](O)[C@H](CO)NC(=O)CCCCCCCCCCCCC | Protein SET (SET, Homo sapiens, UniProt Q01105, K222D) | lipid binding, GFP pull-down LC-MS/MS | A549 overexpressing GFP-tagged protein | – | reference: eluate plus flow-through | lipid fraction bound | 14.5% |
| O=C(COP(=O)(O)O)[C@@H](O)[C@H](O)[C@H](O)COP(=O)(O)O | Large ribosomal subunit protein uL13 (Homo sapiens, UniProt P40429) | thermal proteome profiling, refers to: RPL13A | HepG2 cell lysate | concentration not given, 57 over 37 °C | reference: compound over control | thermal stability ratio | 0.714 and 0.88 and 0.522 |
| CC[C@H](C)[C@H](NC(=O)[C@H](CCCNC(=N)N)NC(=O)[C@H](Cc1c[nH]cn1)NC(=O)[C@H](CCCNC(=N)N)NC(=O)[C@H](CC(=O)O)NC(=O)[C@@H](N)CC(=O)O)C(=O)N[C@@H](CCC(=O)O)C(=O)N[C@@H](CCC(=O)O)C(=O)N[C@@H](CCCCN)C(=O)N[C@@H](CCCNC(=N)N)C(=O)N[C@@H](CCCCN)C(=O)N[C@@H](CCCNC(=N)N)C(=O)N[C@H](C(=O)N[C@@H](Cc1ccc(O)cc1)C(=O)N[C@@H](CCC(=O)O)C(=O)N[C@H](C(=O)N[C@@H](Cc1ccccc1)C(=O)N[C@@H](CCCCN)C(=O)N[C@@H](CO)C(=O)N[C@H](C(=O)N[C@@H](CCSC)C(=O)N[C@@H](CCCCN)C(=O)N[C@@H](CCCCN)C(=O)N[C@@H](CO)C(=O)N1CCC[C@H]1C(=O)N[C@@H](Cc1ccccc1)C(=O)N[C@@H](CC(N)=O)C(=O)NCC(=O)N1CCC[C@H]1C(=O)O)[C@@H](C)CC)[C@@H](C)O)[C@@H](C)O | NF-kappa-B inhibitor alpha (Homo sapiens, UniProt P25963) | binding, ITC | – | pH 7.5, 293 K, 50 mM NaCl | – | ΔG | -8.6 ± 0.3 kcal/mol |
| O=C(O)C1=CCNCC1 | GABA-A receptor; alpha-1/beta-2/gamma-2 (Rattus norvegicus, UniProt P18508+P62813+P63138) | membrane potential, agonist, QP-DHM fluorescence | HEK293 expressing GABAA | – | reference: GABA | maximal response | 64% |
| O=C(O)c1ccc(Nc2ncc3c(n2)-c2ccc(Cl)cc2C(c2c(F)cccc2F)=NC3)cc1 | human IRAK1(h) | kinase activity | – | 1 µM | – | remaining activity | 110% |
| O=c1nc(SCc2cc(F)cc(C(F)(F)F)c2)nc(SCc2ccc3sccc3c2)[nH]1 | TOP2A (Homo sapiens, UniProt P11388) | ATPase activity | – | 1.95 µM, together with: ATP 0.075 mM | – | ATP hydrolysis rate | 0.819 µM/min and 0.695 µM/min |
| NCCCS(=O)(=O)O | SLC6A6 (Homo sapiens, UniProt P31641, Y138A) | binding, microscale thermophoresis | – | 61 nM, room temperature, together with: 50 nM labelled protein | higher = more binding | normalised MST signal | -0.0766 |
| CN(C)c1nccc(-c2cnn3ncccc23)n1 | ABL1 (Homo sapiens, UniProt P00519, Q252H) | KINOMEscan | – | 1 µM | reference: control | remaining binding | 92% and 60% |
| c1ccc2c(c1)-c1cccc3c1c-2cc1ccccc13 | Aryl hydrocarbon receptor | reporter gene, agonist, luciferase reporter | ZF-4 | 3333.33 µM | reference: vehicle control | fold change | 8.34 |
| O=C(NO)c1ccc(CN2CCCCc3ccccc32)c(F)c1 | ADRA2B (Homo sapiens, UniProt P18089) | radioligand binding, PDSP radioligand binding | – | 10 µM | – | inhibition | 33.2% |
| Cc1ccc2ccc3ccccc3c2c1 | AHR (Homo sapiens, UniProt P35869) | reporter gene, agonist, yeast LacZ reporter | Saccharomyces cerevisiae | – | – | maximum response | 174 LacZ units |
| Nc1ccc2ccc3cccc4ccc1c2c34 | Aryl hydrocarbon receptor | reporter gene, agonist, luciferase reporter | ZF-4 | 3333.33 µM | reference: vehicle control | fold change | 1.7 |

Some of these lines once more:
| SMILES | target | test | test system | setting | how to read | quantity | value |
| --- | --- | --- | --- | --- | --- | --- | --- |
| O=C(NO)c1ccc(CN2CCCCc3ccccc32)c(F)c1 | ADRA2B (Homo sapiens, UniProt P18089) | radioligand binding, PDSP radioligand binding | – | 10 µM | – | inhibition | 33.2% |
